Experimental data from different studies.
UniProt P49761, sequence (whole entry, looked up): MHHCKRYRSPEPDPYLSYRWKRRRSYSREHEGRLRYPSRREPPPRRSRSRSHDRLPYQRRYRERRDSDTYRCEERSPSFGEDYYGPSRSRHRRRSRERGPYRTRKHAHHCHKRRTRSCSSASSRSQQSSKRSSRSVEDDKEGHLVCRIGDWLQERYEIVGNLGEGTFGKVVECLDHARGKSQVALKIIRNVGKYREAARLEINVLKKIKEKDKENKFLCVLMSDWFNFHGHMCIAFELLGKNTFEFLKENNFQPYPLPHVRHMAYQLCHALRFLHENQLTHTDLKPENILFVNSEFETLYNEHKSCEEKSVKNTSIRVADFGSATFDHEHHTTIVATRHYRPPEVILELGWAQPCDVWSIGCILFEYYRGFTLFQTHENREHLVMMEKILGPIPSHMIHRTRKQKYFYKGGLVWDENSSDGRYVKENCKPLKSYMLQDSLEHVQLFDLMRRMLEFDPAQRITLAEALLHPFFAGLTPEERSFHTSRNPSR
UniProt P51817, sequence (whole entry, looked up): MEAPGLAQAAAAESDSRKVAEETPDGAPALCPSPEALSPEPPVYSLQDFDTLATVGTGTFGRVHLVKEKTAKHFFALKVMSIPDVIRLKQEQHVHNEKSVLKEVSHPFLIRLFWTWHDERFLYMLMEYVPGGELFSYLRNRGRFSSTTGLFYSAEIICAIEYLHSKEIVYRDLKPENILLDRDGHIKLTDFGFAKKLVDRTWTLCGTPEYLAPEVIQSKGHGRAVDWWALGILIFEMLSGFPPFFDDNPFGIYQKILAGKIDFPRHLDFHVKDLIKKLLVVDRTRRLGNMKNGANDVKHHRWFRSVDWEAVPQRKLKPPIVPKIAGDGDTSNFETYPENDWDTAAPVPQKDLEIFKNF
UniProt P36896, sequence (whole entry, looked up): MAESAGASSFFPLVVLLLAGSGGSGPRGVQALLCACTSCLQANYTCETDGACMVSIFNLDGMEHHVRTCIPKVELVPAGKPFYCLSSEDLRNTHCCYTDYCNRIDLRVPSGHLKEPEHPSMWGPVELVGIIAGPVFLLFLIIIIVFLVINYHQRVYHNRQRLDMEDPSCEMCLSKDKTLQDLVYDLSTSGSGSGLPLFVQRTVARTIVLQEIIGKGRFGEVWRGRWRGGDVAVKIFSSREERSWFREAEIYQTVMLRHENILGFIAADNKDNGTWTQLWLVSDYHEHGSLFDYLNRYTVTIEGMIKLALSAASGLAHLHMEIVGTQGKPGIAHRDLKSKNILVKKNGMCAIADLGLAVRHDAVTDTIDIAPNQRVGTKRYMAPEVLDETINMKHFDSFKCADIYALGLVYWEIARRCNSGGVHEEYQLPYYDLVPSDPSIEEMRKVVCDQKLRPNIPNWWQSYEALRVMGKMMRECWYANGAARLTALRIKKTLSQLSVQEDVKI
UniProt P29597, sequence (whole entry, looked up): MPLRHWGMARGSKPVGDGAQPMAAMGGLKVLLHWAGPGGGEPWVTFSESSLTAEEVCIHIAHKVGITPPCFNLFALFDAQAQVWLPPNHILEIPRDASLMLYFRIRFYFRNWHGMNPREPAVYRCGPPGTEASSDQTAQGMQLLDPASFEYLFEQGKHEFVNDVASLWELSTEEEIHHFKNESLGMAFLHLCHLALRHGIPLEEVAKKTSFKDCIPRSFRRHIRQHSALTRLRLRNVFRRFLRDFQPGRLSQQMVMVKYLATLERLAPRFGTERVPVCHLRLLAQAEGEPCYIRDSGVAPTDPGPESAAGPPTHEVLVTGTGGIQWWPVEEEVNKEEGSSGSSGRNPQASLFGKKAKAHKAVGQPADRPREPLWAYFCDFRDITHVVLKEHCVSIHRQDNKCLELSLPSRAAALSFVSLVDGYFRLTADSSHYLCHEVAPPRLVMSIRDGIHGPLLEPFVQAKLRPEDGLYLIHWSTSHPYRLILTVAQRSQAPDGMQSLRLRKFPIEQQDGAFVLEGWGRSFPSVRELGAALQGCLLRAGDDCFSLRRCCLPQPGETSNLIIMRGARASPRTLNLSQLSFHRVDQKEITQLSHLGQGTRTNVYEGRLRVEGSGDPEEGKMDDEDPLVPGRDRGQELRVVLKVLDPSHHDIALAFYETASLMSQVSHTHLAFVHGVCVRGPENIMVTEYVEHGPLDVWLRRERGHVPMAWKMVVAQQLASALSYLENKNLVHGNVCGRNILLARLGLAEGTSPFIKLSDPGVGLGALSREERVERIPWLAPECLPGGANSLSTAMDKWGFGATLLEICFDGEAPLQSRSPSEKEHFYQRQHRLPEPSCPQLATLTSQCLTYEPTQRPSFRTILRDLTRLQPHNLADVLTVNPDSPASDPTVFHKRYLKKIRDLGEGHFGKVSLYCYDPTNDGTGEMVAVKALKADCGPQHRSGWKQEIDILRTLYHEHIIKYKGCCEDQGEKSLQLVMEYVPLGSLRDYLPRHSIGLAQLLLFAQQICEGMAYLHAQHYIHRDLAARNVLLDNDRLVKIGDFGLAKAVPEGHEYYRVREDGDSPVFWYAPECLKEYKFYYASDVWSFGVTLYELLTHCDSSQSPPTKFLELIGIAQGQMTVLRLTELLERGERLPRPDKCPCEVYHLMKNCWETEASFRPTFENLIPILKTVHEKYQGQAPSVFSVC
UniProt P49935, sequence (whole entry, looked up): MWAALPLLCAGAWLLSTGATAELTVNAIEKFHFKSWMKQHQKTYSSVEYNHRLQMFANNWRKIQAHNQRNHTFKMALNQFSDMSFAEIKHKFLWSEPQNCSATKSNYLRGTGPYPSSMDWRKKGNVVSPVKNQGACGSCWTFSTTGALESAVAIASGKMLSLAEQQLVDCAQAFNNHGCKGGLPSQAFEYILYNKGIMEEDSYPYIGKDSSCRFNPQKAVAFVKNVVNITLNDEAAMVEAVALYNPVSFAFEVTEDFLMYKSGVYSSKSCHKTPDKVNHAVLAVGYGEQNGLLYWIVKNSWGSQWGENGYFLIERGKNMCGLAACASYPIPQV
UniProt Q92626, sequence (whole entry, looked up): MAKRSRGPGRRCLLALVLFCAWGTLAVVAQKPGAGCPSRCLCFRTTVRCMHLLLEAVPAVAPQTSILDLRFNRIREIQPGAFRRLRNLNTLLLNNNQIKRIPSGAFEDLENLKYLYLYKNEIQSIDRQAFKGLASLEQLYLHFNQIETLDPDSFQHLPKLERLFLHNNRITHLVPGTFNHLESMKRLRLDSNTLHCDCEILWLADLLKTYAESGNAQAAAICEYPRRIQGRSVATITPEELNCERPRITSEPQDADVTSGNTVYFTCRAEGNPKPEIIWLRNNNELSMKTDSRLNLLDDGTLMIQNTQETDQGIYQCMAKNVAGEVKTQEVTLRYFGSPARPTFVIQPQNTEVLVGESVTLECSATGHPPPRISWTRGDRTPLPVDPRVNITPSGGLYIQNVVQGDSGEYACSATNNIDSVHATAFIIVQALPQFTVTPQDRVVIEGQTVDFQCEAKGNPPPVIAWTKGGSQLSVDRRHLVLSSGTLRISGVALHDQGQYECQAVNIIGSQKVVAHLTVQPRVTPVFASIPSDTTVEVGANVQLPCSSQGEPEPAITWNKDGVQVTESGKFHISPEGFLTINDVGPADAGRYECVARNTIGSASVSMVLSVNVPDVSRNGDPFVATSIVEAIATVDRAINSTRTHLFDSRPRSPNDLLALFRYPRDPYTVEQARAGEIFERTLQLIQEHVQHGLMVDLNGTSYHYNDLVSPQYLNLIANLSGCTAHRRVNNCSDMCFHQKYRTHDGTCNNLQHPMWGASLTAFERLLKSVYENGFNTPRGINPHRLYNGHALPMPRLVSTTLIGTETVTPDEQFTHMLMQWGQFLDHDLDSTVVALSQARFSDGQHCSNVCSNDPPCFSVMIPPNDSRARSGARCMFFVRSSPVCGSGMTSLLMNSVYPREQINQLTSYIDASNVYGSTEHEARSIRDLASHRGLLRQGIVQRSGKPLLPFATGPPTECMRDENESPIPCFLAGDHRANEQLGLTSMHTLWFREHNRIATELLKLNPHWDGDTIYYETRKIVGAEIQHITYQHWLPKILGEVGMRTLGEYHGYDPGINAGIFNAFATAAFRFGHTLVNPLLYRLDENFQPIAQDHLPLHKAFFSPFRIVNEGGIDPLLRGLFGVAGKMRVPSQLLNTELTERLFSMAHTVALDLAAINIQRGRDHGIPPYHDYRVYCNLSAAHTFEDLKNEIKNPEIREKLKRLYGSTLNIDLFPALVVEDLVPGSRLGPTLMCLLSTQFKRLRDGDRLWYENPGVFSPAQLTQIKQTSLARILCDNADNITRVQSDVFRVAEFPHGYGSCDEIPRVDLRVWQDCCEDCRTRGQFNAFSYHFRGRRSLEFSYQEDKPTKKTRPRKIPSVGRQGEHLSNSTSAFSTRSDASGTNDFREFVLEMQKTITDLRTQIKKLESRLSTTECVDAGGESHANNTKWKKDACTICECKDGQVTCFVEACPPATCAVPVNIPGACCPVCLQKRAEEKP
UniProt Q8IW41, sequence (whole entry, looked up): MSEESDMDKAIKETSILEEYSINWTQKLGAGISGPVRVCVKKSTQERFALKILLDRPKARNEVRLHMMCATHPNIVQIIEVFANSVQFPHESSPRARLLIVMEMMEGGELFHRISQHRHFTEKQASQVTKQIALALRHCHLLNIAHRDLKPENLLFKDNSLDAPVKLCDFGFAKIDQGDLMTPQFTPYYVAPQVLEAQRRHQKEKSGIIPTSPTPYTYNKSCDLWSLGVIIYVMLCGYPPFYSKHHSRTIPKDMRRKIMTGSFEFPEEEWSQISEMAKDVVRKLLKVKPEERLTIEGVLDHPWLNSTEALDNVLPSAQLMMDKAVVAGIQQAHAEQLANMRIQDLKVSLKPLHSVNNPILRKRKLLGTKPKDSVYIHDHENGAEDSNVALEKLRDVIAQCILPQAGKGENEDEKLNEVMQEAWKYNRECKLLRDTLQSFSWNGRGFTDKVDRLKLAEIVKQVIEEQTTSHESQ

Structure (SMILES) | tested on | test | setting | how to read | endpoint | result
O=C(O)c1ccc(Nc2ncc3c(n2)-c2ccc(Cl)cc2C(c2c(F)cccc2F)=NC3)cc1 | human DAPK2(h) | kinase activity | 1 µM | – | remaining activity | 103%
CNc1ncc2c(/C=C/C(=O)N3CCC(OC)CC3)nn(Cc3cccc(C(F)(F)F)c3)c2n1 | cAMP-dependent protein kinase catalytic subunit PRKX (PRKX, Homo sapiens, UniProt P51817) | kinase activity, inhibitor | 1 µM | reference: untreated control | remaining activity | 101%
c1cnc2ccc(Nc3nc(NC4CC4)c4nc[nH]c4n3)cc2c1 | Activin receptor type-1B (ACVR1B, Homo sapiens, UniProt P36896) | kinase activity, inhibitor, SelectScreen kinase profiling | 1 µM | reference: control | remaining activity | 98%
NC/C(=C\F)COc1cccc(Cn2c(=S)[nH]c(=O)c3[nH]cnc32)c1 | Peroxidasin homolog (PXDN, Homo sapiens, UniProt Q92626) | Amplex UltraRed | 60 µM, mean of replicates | reference: control | remaining activity | 8.81%
Cc1cccc(C)c1C(=O)OCC(=O)[C@H](CCCCN)NC(=O)[C@H](CCCNC(=N)N)NC(=O)OCc1ccccc1 | Pro-cathepsin H (Ctsh, Mus musculus, UniProt P49935) | inhibitor | 1 µM, room temperature, with: AMC substrate | – | remaining activity | 92%
Cc1cc(Nc2cc(N3CCN(C)CC3)nc(Sc3ccc(NC(=O)C4CC4)cc3)n2)[nH]n1 | Serine/threonine-protein kinase pim-3 (PIM3, Homo sapiens, UniProt Q86V86) | kinase activity, KinaseProfiler | 0.03 µM, species human | reference: control | remaining activity | 104%
NC(=O)c1ncn([C@@H]2O[C@H](CO[P@@](=O)(O)O[P@](=O)(O)OP(=O)(O)O)[C@@H](O)[C@H]2O)n1 | Non-structural polyprotein pORF1, helicase domain (Hepatitis E virus genotype 1, UniProt P33424) | ATPase activity, inhibitor, colorimetric | 28 µM | reference: untreated | remaining activity | 93.1%
COc1cc(-c2cncc3c2CN(C)Cc2cc(N4CCNCC4)ccc2-3)cc(OC)c1OC | RAC-gamma serine/threonine-protein kinase (AKT3, Homo sapiens, UniProt Q9Y243) | kinase activity | 1 µM, human enzyme, with: ATP 10 µM | reference: DMSO control | remaining activity | 103%
COc1cc(Nc2ncc3c(n2)-c2ccc(Cl)cc2C(c2c(F)cccc2OC)=NC3)ccc1C(=O)O | AKT3 (PKB gamma) | enzyme activity | 1 µM | – | remaining activity | 107%
O=C1NC(=O)/C(=C/c2ccc(-c3ccc(F)cc3O)o2)S1 | MAP kinase-activated protein kinase 5 (MAPKAPK5, Homo sapiens, UniProt Q8IW41) | enzyme activity | 10 µM | – | remaining activity | 64%
COc1cc(F)ccc1-c1ncnc(Nc2cccc(C[S@](C)(=N)=O)c2)n1 | Rho-associated protein kinase 2 (ROCK2, Homo sapiens, UniProt O75116) | kinase activity | 10 µM, with: 10 µM ATP | – | remaining activity | 88%
C=CC(=O)N1CCC[C@@H](n2nc(-c3ccc(Oc4ccccc4)cc3)c3c(N)ncnc32)C1 | Non-receptor tyrosine-protein kinase TYK2 (TYK2, Homo sapiens, UniProt P29597) | – | 0.1 µM | – | remaining activity | 43.3%
Cn1cc(-c2ccc(-c3cncc(Cl)c3N3CCC4(CCNC4=O)CC3)cc2)cn1 | COLO 205 | microarray, item: SPIB | concentration not given, 6 h, gene set SPI-B | reference: untreated cells | fold change in expression | -3.55
O=C(NC1CCC1)c1ccc2nc(-c3cccc(NS(=O)(=O)NCCN4CCCCC4)c3)cn2c1 | Dual specificity protein kinase CLK3 (CLK3, Homo sapiens, UniProt P49761) | enzyme activity | 10 µM | – | remaining activity | 100%
